Experimental data from different studies.
Numbered parts are unrelated; each lists some results of a single study.

Set 1 — technique: protein binding microarray; form: double-stranded DNA, one strand shown; sample: in vitro; tested at: not given; relative to: not given; reading: higher = stronger binding
Target: Histone acetyltransferase KAT6A, winged helix 2, GST fusion (KAT6A, Homo sapiens, UniProt Q92794, residues 85-181)
Notes: 8-mer, flanks averaged, mean of 2 arrays, mostly near background
Residues (chain): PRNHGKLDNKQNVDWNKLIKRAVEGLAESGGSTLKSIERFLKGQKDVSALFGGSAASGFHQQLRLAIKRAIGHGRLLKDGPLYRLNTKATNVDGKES
Oligonucleotide | E-score
CCGTCATC | 0.0137
TACACACA | 0.012
ATTTAAAG | 0.0834
AATAGGTA | -0.171
ACTAGTAT | -0.119
ATATTGCA | -0.156
GATTTAGC | 0.0338
AAGTCGGG | -0.0473
ATATTATC | 0.00931

Set 2 — technique: universal PBM; form: double-stranded DNA, one strand shown; sample: in vitro; tested at: 600 nM; reading: higher = stronger binding
Target: Sal-like protein 4, full length isoform A (SALL4, Homo sapiens, UniProt Q9UJQ4, residues 1-1053)
Chain of UniProt Q9UJQ4 (whole entry, looked up): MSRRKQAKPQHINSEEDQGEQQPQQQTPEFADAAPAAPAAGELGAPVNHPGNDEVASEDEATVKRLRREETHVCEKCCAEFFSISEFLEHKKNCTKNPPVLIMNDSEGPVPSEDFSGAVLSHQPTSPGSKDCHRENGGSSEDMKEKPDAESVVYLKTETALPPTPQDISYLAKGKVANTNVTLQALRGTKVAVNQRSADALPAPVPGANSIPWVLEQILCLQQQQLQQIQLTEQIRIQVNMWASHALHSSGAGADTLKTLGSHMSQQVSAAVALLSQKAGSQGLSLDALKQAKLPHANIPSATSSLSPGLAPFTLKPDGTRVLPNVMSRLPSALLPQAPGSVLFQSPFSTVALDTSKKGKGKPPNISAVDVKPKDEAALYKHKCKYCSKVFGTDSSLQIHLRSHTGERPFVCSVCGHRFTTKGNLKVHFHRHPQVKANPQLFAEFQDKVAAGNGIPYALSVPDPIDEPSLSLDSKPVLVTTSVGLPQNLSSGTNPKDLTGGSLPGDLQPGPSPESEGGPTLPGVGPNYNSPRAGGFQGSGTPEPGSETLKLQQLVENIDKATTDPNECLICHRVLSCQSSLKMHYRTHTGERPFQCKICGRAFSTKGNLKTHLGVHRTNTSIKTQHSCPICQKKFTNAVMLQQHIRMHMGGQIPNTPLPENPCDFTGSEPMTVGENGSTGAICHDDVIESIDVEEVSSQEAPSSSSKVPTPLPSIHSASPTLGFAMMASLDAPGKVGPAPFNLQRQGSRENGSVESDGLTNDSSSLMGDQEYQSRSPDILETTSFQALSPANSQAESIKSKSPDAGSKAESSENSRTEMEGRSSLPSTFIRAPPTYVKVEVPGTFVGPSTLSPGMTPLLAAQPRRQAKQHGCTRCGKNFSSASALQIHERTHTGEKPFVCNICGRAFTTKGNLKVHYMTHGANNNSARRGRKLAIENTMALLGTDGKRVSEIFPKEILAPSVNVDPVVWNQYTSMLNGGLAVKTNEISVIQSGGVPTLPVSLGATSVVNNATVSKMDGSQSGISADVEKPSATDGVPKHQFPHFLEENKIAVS
Notes: 8-mer, flanks averaged, mean of replicates
Oligonucleotide | E-score
ACTAGCCG | -0.241
GTACCTAC | -0.137
AAGTTGGG | -0.156
GGAAAGAC | -0.157
AACCGACA | 0.0486
GTATCGGA | 0.102
GGCGCACA | -0.21

Set 3 — technique: RNAcompete; form: RNA; sample: in vitro; tested at: 20 nM; notes: 7-mer, probes averaged, single round; relative to: mean of 7-mers; reading: higher = stronger binding
Target: PABPC1L2, full length, GST fusion (mouse, UniProt A0ABA7IW68)
Construct (chain): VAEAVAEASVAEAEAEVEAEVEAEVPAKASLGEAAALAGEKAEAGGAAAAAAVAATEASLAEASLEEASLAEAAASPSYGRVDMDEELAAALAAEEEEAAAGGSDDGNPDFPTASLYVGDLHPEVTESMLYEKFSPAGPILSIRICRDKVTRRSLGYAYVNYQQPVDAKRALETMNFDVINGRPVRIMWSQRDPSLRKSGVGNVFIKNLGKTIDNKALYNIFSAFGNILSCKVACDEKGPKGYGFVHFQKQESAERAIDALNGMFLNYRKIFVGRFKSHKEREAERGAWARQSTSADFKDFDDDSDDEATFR
Oligonucleotide | 7-mer Z-score
GCUAUCA | -0.0283
UGUUUCU | -0.387
AGCAAGA | 0.149
CGAAAUC | -0.0808
CUACGAG | -0.00652
GUAAGUC | -0.28

Single results of other studies
Substance | target | test | system | conditions | how to read | endpoint | value
PhoQ, residues 284 288 289 292 302 303 SSTMSV | PhoP, residues 12 14 15 18 19 VQALL (Escherichia coli, UniProt P23836) | Sort-seq, measured: YFP reporter | E. coli | PhoQ-PhoP variant library, with: 10 µM Mg2+ | relative to: high Mg2+ state, higher = stronger signaling | fold induction | 18.8

Excerpt of the above (set 1):
Oligonucleotide | E-score
ATTTAAAG | 0.0834
GATTTAGC | 0.0338
ACTAGTAT | -0.119
